Results collected from several papers.
A part holds a random share of what one study measured. Several values in a cell are separate wells, animals, samples, runs or records. Substitutions count along the parent as printed.
UniProt O94804, sequence (whole entry, looked up): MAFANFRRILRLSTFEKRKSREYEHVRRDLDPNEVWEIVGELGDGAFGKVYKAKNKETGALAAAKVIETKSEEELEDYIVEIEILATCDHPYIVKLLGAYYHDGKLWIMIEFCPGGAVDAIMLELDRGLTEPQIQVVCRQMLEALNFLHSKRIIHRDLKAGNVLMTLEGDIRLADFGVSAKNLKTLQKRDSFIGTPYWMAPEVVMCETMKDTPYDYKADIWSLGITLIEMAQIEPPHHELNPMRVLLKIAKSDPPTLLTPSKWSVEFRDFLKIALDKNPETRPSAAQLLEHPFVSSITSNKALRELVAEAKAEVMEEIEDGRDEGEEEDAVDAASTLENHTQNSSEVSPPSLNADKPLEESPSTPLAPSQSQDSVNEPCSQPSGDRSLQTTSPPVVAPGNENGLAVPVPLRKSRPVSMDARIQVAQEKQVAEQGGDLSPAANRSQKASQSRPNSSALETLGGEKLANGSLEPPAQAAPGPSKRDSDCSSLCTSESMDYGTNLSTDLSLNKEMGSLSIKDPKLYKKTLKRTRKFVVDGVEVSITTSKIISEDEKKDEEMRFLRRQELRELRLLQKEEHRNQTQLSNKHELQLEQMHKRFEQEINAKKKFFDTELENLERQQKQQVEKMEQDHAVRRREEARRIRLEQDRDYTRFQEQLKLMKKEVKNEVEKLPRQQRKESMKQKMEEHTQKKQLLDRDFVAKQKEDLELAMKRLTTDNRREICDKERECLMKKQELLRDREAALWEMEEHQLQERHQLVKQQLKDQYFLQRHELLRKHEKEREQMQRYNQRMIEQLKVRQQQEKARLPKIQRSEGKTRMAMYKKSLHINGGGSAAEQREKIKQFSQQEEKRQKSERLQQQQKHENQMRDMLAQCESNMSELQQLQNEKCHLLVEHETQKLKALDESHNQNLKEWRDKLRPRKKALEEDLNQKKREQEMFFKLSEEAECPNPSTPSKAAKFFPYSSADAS

Block 1
Molecule: KRT18 (Homo sapiens, UniProt P05783)
Technique: cross-linking MS
Sample: cells
With: BSPNO
Quantity: cross-linked residues
Leucine-rich repeat transmembrane protein 3 (Homo sapiens, UniProt Q8NDH2): K187 to K6039
ARMCX3 (Homo sapiens, UniProt Q9UH62): K187 to M1
KRT74 (Homo sapiens, UniProt Q7RTS7): K247 to K150
DSP (Homo sapiens, UniProt P15924): K187 to K2451

Block 2
Target: Probable WRKY transcription factor 50, DNA-binding domain (WRKY50, Arabidopsis thaliana, UniProt Q8VWQ5, residues 99-173)
Technique: DNA-protein interaction ELISA
Molecule type: double-stranded DNA, one strand shown
Sample: in vitro, bacterial lysate
Tested at: not given
Notes: whole dsDNA probe, crude lysate protein
Reference: highest signal in screen
Reading: higher = stronger binding
Quantity: relative absorbance
Target sequence (chain): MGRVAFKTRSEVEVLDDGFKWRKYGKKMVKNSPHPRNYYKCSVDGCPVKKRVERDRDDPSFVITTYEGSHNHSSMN
AAAAAATTACTATTACACACTTGGGGAAAA: 15.5 % of maximum
AAAAAAGGGTTTGTCGGGAATTGCCGAAAA: 10 % of maximum
AAAAAAATCATCCTATTGTTGCTGTCAAAA: 10.1 % of maximum
AAAAAATGCCCATGTGCACCCGTACGAAAA: 30.2 % of maximum
AAAAAAGGTAGTCACATTACGAGGGTAAAA: 20 % of maximum
AAAAAAACTTCTGTCCCTGTTCCCGTAAAA: 39.4 % of maximum
AAAAAAACGGTGTCATAGTATTAGTGAAAA: 28.3 % of maximum
AAAAAAGAGTGGTTTATTAATGTATAAAAA: 16 % of maximum

Block 3
Target: RNA binding protein fox-1 homolog 2, RRM domain, GST-SBP tag (RBFOX2, Homo sapiens, UniProt O43251-10, residues 100-194)
Technique: RNA Bind-n-Seq
Molecule type: RNA
Sample: in vitro
Tested at: 365 nM
Notes: natural RNA segment, single round, ends assumed
Reference: no-protein control
Reading: higher = stronger binding
Quantity: RBNS enrichment (R)
All sequences stand within: GGGAGUUCUACAGUCCGACGAUC … UGGAAUUCUCGGGUGCCAA
Target sequence (chain): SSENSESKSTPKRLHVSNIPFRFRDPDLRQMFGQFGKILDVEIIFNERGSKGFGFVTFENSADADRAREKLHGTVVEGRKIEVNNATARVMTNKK
AAUACUUGUCGCUCUGGGGUUUUGUCUUGUUGAGGAGAGGACAGCAGUUUCUGGACCAUGUUAUCACCUGUGUGUGUCUCAUAUCUUGGAAAUUGACAGAUUUGGUGAAU: 1.4
AUGGCAUGAAGUGAACUAUGGCCUUUUAUUUCCUUCCAGUGUGAACACAGCAGGUGUGAGAUGUCAUCUUGGAAGACAGGCCUUGCAGAAAUAGGCCUACAUCCAAAAUA: 1.96
UUUUAUUCCUUAUGUGUCUUAUAAGGAAUAAAAUGGUCUUCAUUUGACACUUACUUUCCCAUGAACACUUGCAGUUGCUAAGGGACUUUAUUUUGUAACAUAUCAAUUAU: 0.433
ACUGAGAACGUGAACUCGGUCUUCCUUCCAGCUGUCGUCAGGAUCUUGGAGGUGUACACUUACUUAAAUUCAGUAUUACUUGUGUGUGUUUUCAUUUUUUUGUUGUUGUU: 0.567
AGAAAUACAAUGGAUGUGGAAACUAAUUCUAAAAAAUAGCCCUAUUAAUAGGGCAGAGACUCUGGUCCAUUUCCCAGCUGUACUUCUCUCUAAGAGGUGUAUGAAAAACC: 0.34
CUAACCAGGCUCUUCCUCGGGGCAGGGAGGUCCUGGCUUACUCUGUAUUGAGACAGACCCGACAAGUUCCAUGGCAUUAAAUCCAGUUCUGCGUUGGCUGGGGCAGAGCU: 0.82
GCAGGUUAUUGGAAUAGAAUCCAAAAUCAUUUUCCAGCCAAAACAUCCAUUCGAAAUCUGUAUCCCAUUUGAUCCUUAUGUAAGUCUCAUGAGUAAACAGAACAGAAUUU: 0.324
CCUUUCUUGGGGUUUCUUUUCUGUUUUUCUUUCCGGAAGAGAAGGGCCUGAGAAAGGGCCAUGCCAGGGCACAGUGCUGGGUUGCCACACAUGGGAGGGCAGCUUCUAGC: 0.324

Block 4
Target: CCNF, cyclin fold, Cln2 fusion (human)
Technique: yeast growth competition, sequencing
Sample: yeast
Notes: strong parent motif
Reference: not given
Reading: higher = stronger binding
Quantity: normalised enrichment score
Starting sequence: viral docking peptide; TSVRRALFTGGSD; partner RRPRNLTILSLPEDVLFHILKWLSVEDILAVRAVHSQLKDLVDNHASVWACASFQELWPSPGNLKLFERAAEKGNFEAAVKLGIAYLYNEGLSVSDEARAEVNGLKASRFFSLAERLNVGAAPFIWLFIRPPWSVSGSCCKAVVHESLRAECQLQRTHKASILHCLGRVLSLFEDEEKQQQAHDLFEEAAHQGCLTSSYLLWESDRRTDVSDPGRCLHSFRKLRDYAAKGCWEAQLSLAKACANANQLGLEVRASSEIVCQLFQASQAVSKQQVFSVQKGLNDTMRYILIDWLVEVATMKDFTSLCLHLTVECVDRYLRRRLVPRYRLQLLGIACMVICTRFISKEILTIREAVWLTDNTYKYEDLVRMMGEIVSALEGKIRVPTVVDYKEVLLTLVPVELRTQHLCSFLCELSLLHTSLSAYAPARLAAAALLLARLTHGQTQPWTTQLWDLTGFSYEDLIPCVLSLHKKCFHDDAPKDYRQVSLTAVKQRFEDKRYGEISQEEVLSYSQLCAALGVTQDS
TSVRRALFHGGSD [T9H]: 8.74
TGVRRALFTGGSD [S2G]: 8.55
TSVRRALFTGESD [G11E]: 7.63
TSVRRALATGGSD [F8A]: 0.711
TSVRRALFTGASD [G11A]: 8.69
TSVARALFTGGSD [R4A]: 6.97
TSVRRALFTGGLD [S12L]: 8.07
TSVRRALMTGGSD [F8M]: 2.48
TSVRRALFKGGSD [T9K]: 8.93
TSVRRALFTNGSD [G10N]: 8.24
TSVDRALFTGGSD [R4D]: 0.623
TSVRRALFTGGDD [S12D]: 8.08
TSVRRALFTGGPD [S12P]: 8.39
TSVRKALLTGGSD [R5K F8L]: 0.344
TCVRRALFTGGSD [S2C]: 8.17
TSVRRALFTGGHD [S12H]: 8.27
TSVRRAGFTGGSD [L7G]: 0.126
TSVRRTLFTGGSD [A6T]: 7.33
TSVRQALFTGGSD [R5Q]: 1.18
TSRRRALFTGGSD [V3R]: 1.28
TSVRRALFTIGSD [G10I]: 8.31
TSVRRALFSGGSD [T9S]: 8.43
TSVRGALFTGGSD [R5G]: 0.124
TSVRRALFAGGSD [T9A]: 7.99
TSVRRALFTGGVD [S12V]: 8.27

Single results of other studies
SURF6 (Homo sapiens, UniProt O75683)  cross-linked residues (DDX54 (Homo sapiens, UniProt Q8TDD1); cross-linking MS; cell fractions; with: DMTMM): E316 to K848
Cc1cc(NC(=O)c2cccc(S(F)(F)(F)(F)F)c2)cc(-n2ccn3nc(-c4cccnc4)cc23)c1  EC50 (STK10 (Homo sapiens, UniProt O94804); target engagement, NanoBRET; live cells): 2.16 µM and 3.98 µM and 3.41 µM
SNRNP200 (Homo sapiens, UniProt O75643)  cross-linked residues (ELL3 (Homo sapiens, UniProt Q9HB65); cross-linking MS; cell fractions; with: DSSO): K971 to Y356
MBD3 (Homo sapiens, UniProt O95983)  cross-linked residues (GATAD2A (Homo sapiens, UniProt Q86YP4); cross-linking MS; cell fractions; with: DSSO): K227 to K126
YWHAQ (Homo sapiens, UniProt P27348)  interaction screen (YWHAH (Homo sapiens, UniProt Q04917); cross-linking MS; hits only): cross-linked
